Measurements gathered from unrelated publications.
Parts stem from different laboratories: compare values within a part only.
Sequence of UniProt O15294 (whole entry, looked up): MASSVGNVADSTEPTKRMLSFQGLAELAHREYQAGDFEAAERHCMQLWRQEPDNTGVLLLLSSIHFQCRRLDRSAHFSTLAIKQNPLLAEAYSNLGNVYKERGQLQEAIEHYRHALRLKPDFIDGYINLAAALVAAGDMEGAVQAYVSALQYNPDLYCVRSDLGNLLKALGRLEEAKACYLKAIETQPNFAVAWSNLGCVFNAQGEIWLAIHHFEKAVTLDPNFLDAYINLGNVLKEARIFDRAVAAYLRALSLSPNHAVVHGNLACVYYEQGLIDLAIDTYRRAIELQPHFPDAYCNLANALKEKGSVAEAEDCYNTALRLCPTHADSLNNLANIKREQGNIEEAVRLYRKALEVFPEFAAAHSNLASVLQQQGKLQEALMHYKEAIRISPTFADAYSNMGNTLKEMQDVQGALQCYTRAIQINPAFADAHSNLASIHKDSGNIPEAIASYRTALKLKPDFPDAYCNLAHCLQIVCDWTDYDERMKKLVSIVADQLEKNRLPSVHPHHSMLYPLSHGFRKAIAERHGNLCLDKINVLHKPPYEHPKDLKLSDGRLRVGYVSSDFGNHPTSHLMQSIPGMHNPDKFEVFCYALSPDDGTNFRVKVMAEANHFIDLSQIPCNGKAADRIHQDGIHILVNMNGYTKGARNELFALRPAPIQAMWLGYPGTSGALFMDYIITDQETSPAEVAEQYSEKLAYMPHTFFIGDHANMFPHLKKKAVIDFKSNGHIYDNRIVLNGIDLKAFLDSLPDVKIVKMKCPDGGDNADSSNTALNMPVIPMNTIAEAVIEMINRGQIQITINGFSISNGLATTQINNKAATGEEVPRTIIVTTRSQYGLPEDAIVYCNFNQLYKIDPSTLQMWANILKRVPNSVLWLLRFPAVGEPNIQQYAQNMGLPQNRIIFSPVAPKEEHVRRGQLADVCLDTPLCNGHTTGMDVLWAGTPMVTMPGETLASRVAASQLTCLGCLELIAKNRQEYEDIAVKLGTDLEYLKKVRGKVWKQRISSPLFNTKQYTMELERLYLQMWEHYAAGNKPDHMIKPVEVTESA

Study 1
Target: PABPC1L2, full length, GST fusion (mouse, UniProt A0ABA7IW68)
Method: RNAcompete
Molecule type: RNA
Matrix: in vitro
Tested at: 20 nM
Notes: 7-mer, probes averaged, single round
Baseline: mean of 7-mers
Reading: higher = stronger binding
Target sequence (chain): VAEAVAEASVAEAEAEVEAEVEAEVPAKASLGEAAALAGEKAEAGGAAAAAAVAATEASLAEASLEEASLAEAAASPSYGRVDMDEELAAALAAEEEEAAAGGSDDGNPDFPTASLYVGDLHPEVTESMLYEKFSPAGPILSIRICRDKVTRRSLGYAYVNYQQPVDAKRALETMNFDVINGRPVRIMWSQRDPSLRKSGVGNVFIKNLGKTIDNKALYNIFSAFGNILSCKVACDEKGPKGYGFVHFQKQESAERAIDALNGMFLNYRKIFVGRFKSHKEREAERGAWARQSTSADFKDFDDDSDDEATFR
`GCACACU` has a 7-mer Z-score of -0.146.
For `ACUUUAA`, the 7-mer Z-score was 0.0841.
The 7-mer Z-score of `ACAACAA` is reported as 0.669.
`UGUAAAC` has a 7-mer Z-score of 0.321.
`GGGUACC` gave a 7-mer Z-score of -0.115.
`CUUAGCC` gave a 7-mer Z-score of -0.374.
For `GAAUGUA`, the 7-mer Z-score was -0.0989.
For `GCCGCAC`, the 7-mer Z-score was -0.253.

Study 2
Target: TAR DNA-binding protein 43, full length, His tag (TARDBP, Homo sapiens, UniProt Q13148, residues 1-414)
Method: RNA Bind-n-Seq
Molecule type: RNA
Matrix: in vitro
Tested at: 20 nM
Notes: 6-mer, flanks averaged, single round
Added: 150 mM KCl
Baseline: input library
Reading: higher = stronger binding
For `GCGCGG`, “6-mer enrichment (R)” read 3.63.
`AUAGUA`: “6-mer enrichment (R)” 0.669.
Under “6-mer enrichment (R)”, `CAUCCA` is recorded as 0.605.
`GGAAAU`: “6-mer enrichment (R)” 0.963.
Under “6-mer enrichment (R)”, `UUACUC` is recorded as 0.553.
Under “6-mer enrichment (R)”, `AAGAUA` is recorded as 0.621.
`UGAUCA`: “6-mer enrichment (R)” 0.613.
Under “6-mer enrichment (R)”, `CACUCG` is recorded as 0.631.

Study 3
Target: RNA binding protein fox-1 homolog 2, RRM domain, GST-SBP tag (RBFOX2, Homo sapiens, UniProt O43251-10, residues 100-194)
Method: RNA Bind-n-Seq
Molecule type: RNA
Matrix: in vitro
Tested at: 365 nM
Notes: natural RNA segment, single round, ends assumed
Baseline: no-protein control
Reading: higher = stronger binding
Constant ends, left off below: GGGAGUUCUACAGUCCGACGAUC … UGGAAUUCUCGGGUGCCAA
Construct (chain): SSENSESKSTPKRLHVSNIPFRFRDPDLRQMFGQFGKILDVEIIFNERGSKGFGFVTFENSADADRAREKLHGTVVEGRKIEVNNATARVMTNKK
For `ACAUAGUGGGCCUUCAUUAAAUGUUUGUUGAAUAAAAGAGGGAAGAAGGCAAGCCAACCUUAGCUACAAUCCUACCUUUUGAUAAAAUGUUCCUUUUGACAAUAUACACG`, “RBNS enrichment (R)” read 0.289.
Under “RBNS enrichment (R)”, `AAUUGUACCACCACUUGGUUUGGACUACAAAUUAAACAUUGGCCCUCGCGGAGCUUGAGUUCUUCAUGGUAGAAAACAGUUGCAUUUCCGUAAAGGGUGGAGGGCUUGAG` is recorded as 0.532.
`CUGAGCUUUGGUUUUUAGAAAUAAAGUGCAUGAAUUGCUGCUAUGCUGUAUCCUAGUAUCCCAGUGAAACUCUGAGUUGGAAUGAUUCCCUCUGGUCCUGCAUAUGCAGA` — result for “RBNS enrichment (R)”: 20.
`AUUUUAAAUAAGACUAAGUAUAGGCAUUGUACCUGACAUUGCUACGUUUCUACCAGUGUUUCAAUUUAAAGUGCUAGUGUUUAAAAACAUUUUCAAGGGAUAAGGCCUUC`: “RBNS enrichment (R)” 0.322.
For `UAUCUGAUGGUGCAGUUUUGGGGUCUGUCCCCACUCCCCUCAGUCCCUACCCCUGCUCCCCUCAGACAUGGGGCAGGAAACAGCAGGUGCGCUGGGCAGGAGGAAGGCAU`, “RBNS enrichment (R)” read 0.212.
Under “RBNS enrichment (R)”, `AAGCCACUAUGCAAUUUCUACCAAUGGAGAGAUUAGGGAAGCAAAUUAAGCCUCAUUCAGUAGGUCUGCUGUCUGGUGGAACUUACGGAACUCAUUUCCUCCUCUAUCCC` is recorded as 0.309.
`GCGAUGCCACGCUUUGCUGCUACCGCCCUGGGCUGGACUGGAGGUGGGCAUGCCACCCUCACACACACAGCUGGGCAAAGCCACAAGGCUGGCCAGCAAGGCAGGUUGGA`: “RBNS enrichment (R)” 0.516.
`AGAAAAAGUAGGUUUGCUGAAAAACAUUACUAAAUGACUUGGAGCUCUCCAGUCAAAGAAACAAAGCUAAUUGAAAUAAUGUACAUUUGGUUCAGUCUGUCAGGCAAGUA`: “RBNS enrichment (R)” 0.71.

Other studies, line by line
`RVQHTFQHETGKHHH` — result for “enrichment fold change”: 6.05 (UDP-N-acetylglucosamine--peptide N-acetylglucosaminyltransferase 110 kDa subunit (OGT, Homo sapiens, UniProt O15294); binding, phage display NGS; peptide; concentration not given; baseline: input library).

A few entries again (study 3):
Under “RBNS enrichment (R)”, `AAUUGUACCACCACUUGGUUUGGACUACAAAUUAAACAUUGGCCCUCGCGGAGCUUGAGUUCUUCAUGGUAGAAAACAGUUGCAUUUCCGUAAAGGGUGGAGGGCUUGAG` is recorded as 0.532.
For `UAUCUGAUGGUGCAGUUUUGGGGUCUGUCCCCACUCCCCUCAGUCCCUACCCCUGCUCCCCUCAGACAUGGGGCAGGAAACAGCAGGUGCGCUGGGCAGGAGGAAGGCAU`, “RBNS enrichment (R)” read 0.212.
